Published values pooled from the literature.

Compound | organism | assay | system | setting | MIC
Cc1c(CN(C)C(=O)/C=C/c2cnc3c(c2)CC(N)C(=O)N3)oc2ccccc12 (stereo not drawn) | Escherichia coli | microbial growth, broth dilution | BAA2340 | clinical isolate | 4 µg/mL
CC[C@H](C)[C@H](NC(=O)[C@H](CCCNC(=N)N)NC(=O)[C@H](CC(=O)O)NC(=O)[C@H](CCCNC(=N)N)NC(=O)[C@H](CC(C)C)NC(=O)[C@H](CC(N)=O)NC(=O)[C@H](CCCNC(=N)N)NC(=O)[C@@H](N)Cc1ccccc1)C(=O)N[C@@H](CCCCN)C(=O)N[C@@H](CC(N)=O)C(=O)N[C@@H](CCCCN)C(=O)N[C@@H](Cc1ccccc1)C(=O)N[C@@H](CCC(=O)O)C(=O)N[C@@H](CC(N)=O)C(=O)N[C@@H](C)C(=O)N[C@@H](CC(C)C)C(=O)N[C@@H](CCCCN)C(=O)N[C@@H](CC(N)=O)C(=O)N[C@H](C(=O)N[C@H](C(=O)N[C@@H](CC(N)=O)C(=O)N[C@@H](CCCCN)C(=O)N[C@@H](CC(C)C)C(=O)N[C@@H](Cc1ccccc1)C(=O)N1CCC[C@H]1C(=O)O)[C@@H](C)CC)C(C)C | Micrococcus luteus | broth microdilution | ATCC 4698 | 43 h, 37 °C, cation-adjusted Mueller-Hinton broth | 8 µg/mL
C/C(=C\c1ccc(O)cc1)C(=O)Nc1ccc(C(=O)N[C@@H](Cc2c[nH]nn2)C(=O)Nc2ccc(C(=O)Nc3ccc(C(=O)Nc4ccc(C(=O)O)c(O)c4)c(O)c3)cc2)cc1 | Micrococcus luteus | broth microdilution | DSM 1790 |  | 0.5 µg/mL
N=C(N)NCCC[C@@H]1NC(=O)[C@H](CCCNC(=N)N)NC(=O)[C@@H](C(c2ccccc2)c2ccccc2)NC(=O)[C@H](Cc2c[nH]c3ccccc23)NC(=O)[C@@H](C(c2ccccc2)c2ccccc2)NC(=O)[C@@H](CCCNC(=N)N)NC(=O)[C@@H](CCCNC(=N)N)NC1=O | Paecilomyces variotii |  | MYA-3630 |  | 8 µg/mL
COC1C=COC2(C)Oc3c(C)c(O)c4c(c3C2=O)C2=NC3(CCN(CC(C)C)CC3)NC2=C(NC(=O)C(C)=CC=CC(C)C(O)C(C)C(O)C(C)C(OC(=O)Nc2cnccn2)C1C)C4=O (stereo not drawn) | Mycobacteroides abscessus | microbial growth, agar dilution | ATCC19977 |  | 0.48 µM
C=C[C@]1(C)C[C@@H](OC(=O)CSc2ccc(NC(=O)c3ccco3)cc2)[C@]2(C)[C@H](C)CC[C@]3(CCC(=O)[C@H]32)[C@@H](C)[C@@H]1O | Mycoplasma gallisepticum |  | chicken lung isolates | 60 mg/kg to chickens | 0.00391 µg/mL
CN[C@H](CC(C)C)C(=O)N[C@H]1C(=O)N[C@@H](CC(N)=O)C(=O)N[C@H]2C(=O)N[C@H]3C(=O)N[C@H](C(=O)N[C@H](C(=O)O)c4cc(O)cc(O)c4-c4cc3ccc4O)[C@H](O)c3ccc(c(Cl)c3)Oc3cc2cc(c3O[C@@H]2O[C@H](CO)[C@@H](O)[C@H](O)[C@H]2O[C@H]2C[C@](C)(N)[C@H](O)[C@H](C)O2)Oc2ccc(cc2Cl)[C@H]1O | Bacillus | broth microdilution | DSM 25372 | 24 h, aerobic, 30 °C | 0.13 µg/mL
COC1=CC(c2ccc[nH]2)=NC1=CNC1CCCCCC1.Cl | Candidozyma auris | broth microdilution | CDC AR Bank #0381 | 24 h | 8 µg/mL
CCOc1c(NC(=O)c2ccc(NC(=O)c3ccc(NC(=O)[C@H](Cc4c[nH]nn4)NC(=O)c4ccc(NC(=O)/C(C)=C/c5ccc(O)cc5)cc4)cc3)c(OCC)c2O)ccc(C(=O)O)c1O | Micrococcus luteus | broth microdilution | DSM 1790 |  | 0.5 µg/mL
CC[C@H](C)[C@@H]1NC(=O)[C@@H]([C@@H](C)O)NC(=O)CNC(=O)[C@H](CC(=O)O)NC(=O)CNC(=O)[C@H](CC(=O)O)NC(=O)CNC(=O)[C@H]2CCCCN2C(=O)[C@@H](NC(=O)[C@H](CC(=O)O)NC(=O)/C=C/CCCCCCCCCC(C)C)CNC(=O)[C@@H]2CCCN2C1=O | Staphylococcus simulans | broth microdilution | 22, Mueller-Hinton broth, Mg2+ 10 mg/L | 16 h, 30 °C, with: Ca2+ 5 mM | 4 µg/mL
O=C(NCc1ccccc1)C(CCc1ccccc1)N(CCc1c[nH]cn1)C(=O)c1ccccc1 (racemic) | Micrococcus luteus |  | DSM 1790 |  | 128 µM
C#CCOc1ccc(CN[C@@]2(C)C[C@H](O[C@H]3[C@H](Oc4c5cc6cc4Oc4ccc(cc4Cl)[C@@H](O)[C@@H](NC(=O)[C@@H](CC(C)C)NC)C(=O)N[C@@H](CC(N)=O)C(=O)N[C@H]6C(=O)N[C@H]4C(=O)N[C@H](C(=O)N[C@H](C(=O)O)c6cc(O)cc(O)c6-c6cc4ccc6O)[C@H](O)c4ccc(c(Cl)c4)O5)O[C@H](CO)[C@@H](O)[C@@H]3O)O[C@@H](C)[C@H]2O)cc1OC | Staphylococcus simulans | broth microdilution | 22, cation-adjusted Mueller-Hinton broth | 20 to 24 h, 37 °C, 0.002% polysorbate 80 | 1 µg/mL
COc1cc(C(=O)O)ccc1NC(=O)c1ccc(NC(=O)c2ccc(NC(=O)[C@H](Cc3c[nH]nn3)NC(=O)c3ccc(NC(=O)/C(C)=C/c4ccc(O)cc4)cc3)cc2)c(OC)c1 | Micrococcus luteus | broth microdilution | DSM 1790 |  | 4 µg/mL
CC1C=CC=CC(C)C2C=CC3CC(C)(O)C(Cl)C(C)C3C2C(=O)C(Cl)(Cl)C(=O)C(C)C(=O)O1 (stereo not drawn) | Staphylococcus aureus |  | MRSA clinical isolate | resistant, OXA, CIP, MXF, ERY, CLI, RIF | 0.1 µg/mL
N=C(N)NCCC[C@@H]1NC(=O)[C@@H](CCCNC(=N)N)NC(=O)[C@H](CCCNC(=N)N)NC(=O)[C@@H](C(c2ccccc2)c2ccccc2)NC(=O)[C@@H](C(c2ccccc2)c2ccccc2)NC(=O)[C@@H](C(c2ccccc2)c2ccccc2)NC(=O)[C@@H](CCCNC(=N)N)NC1=O | Paecilomyces variotii |  | MYA-3630 |  | 8 µg/mL
CN[C@H](CC(C)C)C(=O)N[C@H]1C(=O)N[C@@H](CC(N)=O)C(=O)N[C@H]2C(=O)N[C@H]3C(=O)N[C@H](C(=O)N[C@H](C(=O)N[C@@H](CCCNC(=N)N)C(N)=O)c4cc(O)cc(O)c4-c4cc3ccc4O)[C@H](O)c3ccc(c(Cl)c3)Oc3cc2cc(c3O[C@@H]2O[C@H](CO)[C@@H](O)[C@H](O)[C@H]2O[C@H]2C[C@](C)(NCc3ccc(OCc4cn(CC(=O)N[C@H](C(=O)N[C@@H](CCN)C(=O)N[C@H]5CCNC(=O)[C@H]([C@@H](C)O)NC(=O)[C@H](CCN)NC(=O)[C@H](CCN)NC(=O)[C@H](CC(C)C)NC(=O)[C@@H](CC(C)C)NC(=O)[C@H](CCN)NC5=O)[C@@H](C)O)nn4)c(OC)c3)[C@H](O)[C@H](C)O2)Oc2ccc(cc2Cl)[C@H]1O | Staphylococcus simulans | broth microdilution | 22, cation-adjusted Mueller-Hinton broth | 20 to 24 h, 37 °C, 0.002% polysorbate 80 | ≤ 0.008 µg/mL
CCOc1c(NC(=O)c2ccc(NC(=O)[C@H](Cc3c[nH]nn3)NC(=O)c3ccc(NC(=O)/C(C)=C/c4ccc(O)cc4)cc3)cc2)ccc(C(=O)Nc2ccc(C(=O)O)c(O)c2OC)c1O | Micrococcus luteus | broth microdilution | DSM 1790 |  | 0.125 µg/mL
CN[C@H](CC(C)C)C(=O)N[C@H]1C(=O)N[C@@H](CC(N)=O)C(=O)N[C@H]2C(=O)N[C@H]3C(=O)N[C@H](C(=O)N[C@H](C(=O)NCc4cn(CC(=O)N[C@H](C(=O)N[C@@H](CCN)C(=O)N[C@H]5CCNC(=O)[C@H]([C@@H](C)O)NC(=O)[C@H](CCN)NC(=O)[C@H](CCN)NC(=O)[C@H](CC(C)C)NC(=O)[C@@H](CC(C)C)NC(=O)[C@H](CCN)NC5=O)[C@@H](C)O)nn4)c4cc(O)cc(O)c4-c4cc3ccc4O)[C@H](O)c3ccc(c(Cl)c3)Oc3cc2cc(c3O[C@@H]2O[C@H](CO)[C@@H](O)[C@H](O)[C@H]2O[C@H]2C[C@](C)(N)[C@H](O)[C@H](C)O2)Oc2ccc(cc2Cl)[C@H]1O | Staphylococcus simulans | broth microdilution | 22, cation-adjusted Mueller-Hinton broth | 20 to 24 h, 37 °C, 0.002% polysorbate 80 | ≤ 0.008 µg/mL
COc1nc(C(=O)Nc2ccc(C(=O)O)c(O)c2OC)ccc1NC(=O)c1ccc(NC(=O)[C@H](Cc2c[nH]nn2)NC(=O)c2ccc(NC(=O)/C(C)=C/c3ccc(O)cc3)cc2)cc1 | Micrococcus luteus | broth microdilution | DSM 1790 |  | 0.25 µg/mL
CN[C@H](CC(C)C)C(=O)N[C@H]1C(=O)N[C@@H](CC(N)=O)C(=O)N[C@H]2C(=O)N[C@H]3C(=O)N[C@H](C(=O)N[C@H](C(=O)O)c4cc(O)cc(O)c4-c4cc3ccc4O)[C@H](O)c3ccc(c(Cl)c3)Oc3cc2cc(c3O[C@@H]2O[C@H](CO)[C@@H](O)[C@H](O)[C@H]2O[C@H]2C[C@](C)(NCc3ccc(OCc4cn(CC(=O)N[C@H](C(=O)N[C@@H](CCN)C(=O)N[C@H]5CCNC(=O)[C@H]([C@@H](C)O)NC(=O)[C@H](CCN)NC(=O)[C@H](CCN)NC(=O)[C@H](CC(C)C)NC(=O)[C@@H](CC(C)C)NC(=O)[C@H](CCN)NC5=O)[C@@H](C)O)nn4)c(OC)c3)[C@H](O)[C@H](C)O2)Oc2ccc(cc2Cl)[C@H]1O | Staphylococcus simulans | broth microdilution | 22, cation-adjusted Mueller-Hinton broth | 20 to 24 h, 37 °C, 0.002% polysorbate 80 | 0.031 µg/mL
CC[C@H](C)[C@H](N)C(=O)N1CCC[C@H]1C(=O)N[C@@H](Cc1ccccc1)C(=O)N[C@@H](Cc1c[nH]c2ccccc12)C(=O)N[C@@H](CCCNC(=N)N)C(=O)N[C@@H](Cc1c[nH]c2ccccc12)C(=O)N[C@@H](CC(C)C)C(=O)N[C@@H](CC(C)C)C(=O)N[C@@H](CCC(N)=O)C(=O)N[C@@H](CCCNC(=N)N)C(=O)N[C@@H](CC(C)C)C(=O)N1CCC[C@H]1C(=O)NCC(=O)O | Micrococcus luteus | broth microdilution | ATCC 4698 | 43 h, 37 °C, cation-adjusted Mueller-Hinton broth | 8 µg/mL

A few entries again:
Compound | organism | assay | system | setting | MIC
C#CCOc1ccc(CN[C@@]2(C)C[C@H](O[C@H]3[C@H](Oc4c5cc6cc4Oc4ccc(cc4Cl)[C@@H](O)[C@@H](NC(=O)[C@@H](CC(C)C)NC)C(=O)N[C@@H](CC(N)=O)C(=O)N[C@H]6C(=O)N[C@H]4C(=O)N[C@H](C(=O)N[C@H](C(=O)O)c6cc(O)cc(O)c6-c6cc4ccc6O)[C@H](O)c4ccc(c(Cl)c4)O5)O[C@H](CO)[C@@H](O)[C@@H]3O)O[C@@H](C)[C@H]2O)cc1OC | Staphylococcus simulans | broth microdilution | 22, cation-adjusted Mueller-Hinton broth | 20 to 24 h, 37 °C, 0.002% polysorbate 80 | 1 µg/mL
CN[C@H](CC(C)C)C(=O)N[C@H]1C(=O)N[C@@H](CC(N)=O)C(=O)N[C@H]2C(=O)N[C@H]3C(=O)N[C@H](C(=O)N[C@H](C(=O)O)c4cc(O)cc(O)c4-c4cc3ccc4O)[C@H](O)c3ccc(c(Cl)c3)Oc3cc2cc(c3O[C@@H]2O[C@H](CO)[C@@H](O)[C@H](O)[C@H]2O[C@H]2C[C@](C)(NCc3ccc(OCc4cn(CC(=O)N[C@H](C(=O)N[C@@H](CCN)C(=O)N[C@H]5CCNC(=O)[C@H]([C@@H](C)O)NC(=O)[C@H](CCN)NC(=O)[C@H](CCN)NC(=O)[C@H](CC(C)C)NC(=O)[C@@H](CC(C)C)NC(=O)[C@H](CCN)NC5=O)[C@@H](C)O)nn4)c(OC)c3)[C@H](O)[C@H](C)O2)Oc2ccc(cc2Cl)[C@H]1O | Staphylococcus simulans | broth microdilution | 22, cation-adjusted Mueller-Hinton broth | 20 to 24 h, 37 °C, 0.002% polysorbate 80 | 0.031 µg/mL
